{"data": "Results collected from several papers", "note": "A part holds a random share of what one study measured. Values joined by “and” are separate records of one study, mostly repeats; a detail may differ."}
{"data": "Set 1", "Structure (SMILES)": "C[C@@H]1CN(c2ccc(-c3cc(C(=O)NCCOCCOCCOCCOCCOCCOCCNC(=O)/C=C/c4[nH]cc(C(=O)N[C@@H](CC(N)=O)c5ccc(F)c(Cl)c5)c4-c4ccc(Cl)cc4F)ccc3F)cc2NC(=O)c2ccc(F)cc2C(F)(F)F)C[C@H](C)N1C", "read-out": "thermal unfolding", "technique": "differential scanning fluorimetry", "tested at": "5.5 µM", "direction": "higher = more unfolded", "DCAF1": "DDB1- and CUL4-associated factor 1 (DCAF1, Homo sapiens, UniProt Q9Y4B6)", "WDR5": "WD repeat-containing protein 5 (WDR5, Homo sapiens, UniProt P61964)", "sequence of UniProt Q9Y4B6 (whole entry, looked up)": "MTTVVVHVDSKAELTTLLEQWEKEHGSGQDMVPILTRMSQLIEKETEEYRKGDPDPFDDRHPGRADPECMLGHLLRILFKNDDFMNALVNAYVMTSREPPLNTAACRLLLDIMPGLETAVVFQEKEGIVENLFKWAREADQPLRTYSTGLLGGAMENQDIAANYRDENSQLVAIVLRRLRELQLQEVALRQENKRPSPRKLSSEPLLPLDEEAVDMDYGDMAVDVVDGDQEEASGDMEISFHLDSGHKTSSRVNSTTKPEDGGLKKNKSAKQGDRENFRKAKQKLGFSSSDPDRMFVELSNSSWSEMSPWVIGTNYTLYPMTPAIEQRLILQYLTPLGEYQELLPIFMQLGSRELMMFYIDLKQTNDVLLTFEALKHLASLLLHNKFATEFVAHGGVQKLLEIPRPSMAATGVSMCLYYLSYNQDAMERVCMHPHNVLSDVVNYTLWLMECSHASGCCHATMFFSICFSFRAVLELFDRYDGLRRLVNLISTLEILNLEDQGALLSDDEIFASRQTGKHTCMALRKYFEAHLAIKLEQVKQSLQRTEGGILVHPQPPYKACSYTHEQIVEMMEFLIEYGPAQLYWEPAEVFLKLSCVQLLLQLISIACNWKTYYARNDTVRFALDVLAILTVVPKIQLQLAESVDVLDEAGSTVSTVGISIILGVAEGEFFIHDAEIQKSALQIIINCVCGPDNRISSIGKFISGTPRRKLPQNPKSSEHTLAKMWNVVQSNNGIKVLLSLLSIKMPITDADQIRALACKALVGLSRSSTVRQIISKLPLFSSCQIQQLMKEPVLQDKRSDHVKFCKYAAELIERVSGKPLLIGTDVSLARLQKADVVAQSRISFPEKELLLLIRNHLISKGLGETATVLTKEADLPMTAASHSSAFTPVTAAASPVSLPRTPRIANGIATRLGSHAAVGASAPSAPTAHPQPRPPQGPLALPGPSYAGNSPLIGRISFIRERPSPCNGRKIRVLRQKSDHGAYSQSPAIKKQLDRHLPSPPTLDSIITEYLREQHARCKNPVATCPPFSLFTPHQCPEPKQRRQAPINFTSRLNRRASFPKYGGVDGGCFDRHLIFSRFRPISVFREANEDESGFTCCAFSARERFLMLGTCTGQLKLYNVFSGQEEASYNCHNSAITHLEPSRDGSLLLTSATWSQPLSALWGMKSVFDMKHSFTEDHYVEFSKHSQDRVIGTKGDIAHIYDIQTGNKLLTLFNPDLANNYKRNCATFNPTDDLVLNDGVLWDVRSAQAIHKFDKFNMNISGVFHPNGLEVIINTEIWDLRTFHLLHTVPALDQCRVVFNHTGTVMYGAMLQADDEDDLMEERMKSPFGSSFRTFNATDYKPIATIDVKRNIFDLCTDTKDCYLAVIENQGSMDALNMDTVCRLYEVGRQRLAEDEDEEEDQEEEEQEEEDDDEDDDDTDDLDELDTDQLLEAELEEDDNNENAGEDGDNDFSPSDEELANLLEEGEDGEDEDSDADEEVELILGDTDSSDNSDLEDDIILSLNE"}
{"target": "DCAF1", "conditions": "76.61 °C", "SYPRO Orange fluorescence [a.u.]": 42400}
{"target": "WDR5", "conditions": "79.01 °C", "SYPRO Orange fluorescence [a.u.]": 62900}
{"target": "WDR5", "conditions": "75.61 °C", "SYPRO Orange fluorescence [a.u.]": 51200}
{"target": "DCAF1", "conditions": "64.21 °C", "SYPRO Orange fluorescence [a.u.]": 54000}
{"target": "WDR5", "conditions": "29.6 °C", "SYPRO Orange fluorescence [a.u.]": 13600}
{"target": "DCAF1", "conditions": "72.81 °C", "SYPRO Orange fluorescence [a.u.]": 45800}
{"target": "DCAF1", "conditions": "49.2 °C", "SYPRO Orange fluorescence [a.u.]": 17400}
{"target": "WDR5", "conditions": "69.01 °C", "SYPRO Orange fluorescence [a.u.]": 24300}
{"target": "DCAF1", "conditions": "71.01 °C", "SYPRO Orange fluorescence [a.u.]": 47200}
{"target": "WDR5", "conditions": "49.6 °C", "SYPRO Orange fluorescence [a.u.]": 16200}
{"target": "WDR5", "conditions": "89.81 °C", "SYPRO Orange fluorescence [a.u.]": 55300}
{"data": "Set 2", "Compound": "Cc1ncsc1-c1ccc(C2(NC(=O)C3CC(O)CN3C(=O)C(NC(=O)c3ccc(COc4c(-c5c(C)c(F)cc6[nH]ncc56)c(C5CC5)cc5c(N6CC7CC6CN7)nc(OC6CCOCC6)nc45)cc3)C(C)C)CC2)cc1 (centres unmarked)", "cell line": "AsPC-1", "technique": "in-cell ELISA"}
{"conditions": "30 nM, individual replicates", "phospho-ERK1/2 level": "88.5% and 89% and 87.6% and 86.7% and 86.2% and 97.9%"}
{"conditions": "10 µM, individual replicates", "phospho-ERK1/2 level": "5.94% and 7.82% and 11.9% and 13.3% and 12.3% and 9.38%"}
{"conditions": "3 nM, individual replicates", "phospho-ERK1/2 level": "98% and 99.8% and 95.9% and 98.3% and 87.4% and 86.6%"}
{"conditions": "10 nM, per-experiment values", "phospho-ERK1/2 level": "88.4% and 102% and 97.4%"}
{"conditions": "100 nM, individual replicates", "phospho-ERK1/2 level": "72.6% and 61.3% and 58.3% and 71.2% and 82.6% and 69.7%"}
{"conditions": "1 µM, per-experiment values", "phospho-ERK1/2 level": "8.49% and 13.3% and 10.6%"}
{"conditions": "300 pM, individual replicates", "phospho-ERK1/2 level": "106% and 90.6% and 93.8% and 93%"}
{"conditions": "3 µM, individual replicates", "phospho-ERK1/2 level": "10.1% and 9.91% and 10.4% and 9.34% and 7.26% and 10.6%"}
{"data": "Set 3", "target": "Fibroblast growth factor receptor 1 (FGFR1, Homo sapiens, UniProt P11362)", "read-out": "enzyme activity", "action": "inhibitor", "sequence of UniProt P11362 (whole entry, looked up)": "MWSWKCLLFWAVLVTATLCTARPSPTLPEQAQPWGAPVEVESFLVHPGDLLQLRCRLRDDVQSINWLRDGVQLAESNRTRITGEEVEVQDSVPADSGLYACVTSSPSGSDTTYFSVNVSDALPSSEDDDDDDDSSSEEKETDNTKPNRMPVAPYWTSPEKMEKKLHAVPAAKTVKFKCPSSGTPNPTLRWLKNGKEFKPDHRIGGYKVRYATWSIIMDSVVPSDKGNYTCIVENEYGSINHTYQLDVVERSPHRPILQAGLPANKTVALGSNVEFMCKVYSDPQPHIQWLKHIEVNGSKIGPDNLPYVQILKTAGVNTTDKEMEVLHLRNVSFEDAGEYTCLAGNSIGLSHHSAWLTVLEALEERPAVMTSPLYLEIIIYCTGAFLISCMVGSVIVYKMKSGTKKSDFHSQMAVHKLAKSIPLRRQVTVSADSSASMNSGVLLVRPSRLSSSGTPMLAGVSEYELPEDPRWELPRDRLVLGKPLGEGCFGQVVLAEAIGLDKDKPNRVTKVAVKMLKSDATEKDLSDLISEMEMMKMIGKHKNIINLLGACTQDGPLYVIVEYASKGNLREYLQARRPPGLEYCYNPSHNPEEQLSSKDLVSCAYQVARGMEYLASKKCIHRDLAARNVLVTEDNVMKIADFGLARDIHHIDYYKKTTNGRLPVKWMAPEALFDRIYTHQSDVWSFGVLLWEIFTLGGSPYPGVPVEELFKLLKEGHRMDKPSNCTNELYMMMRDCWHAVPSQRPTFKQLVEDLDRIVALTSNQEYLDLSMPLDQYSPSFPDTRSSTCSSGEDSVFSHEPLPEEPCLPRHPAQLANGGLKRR"}
{"Structure (SMILES)": "CNc1ncc2cc(-c3cc(OC)cc(OC)c3Cl)c(=O)n(CCc3ccc(NC(=O)C(C#N)=CC(C)(C)C)cc3)c2n1", "IC50 [nM]": 6}
{"Structure (SMILES)": "CNc1ncc2cc(-c3cc(OC)cc(OC)c3Cl)c(=O)n(CCc3ccc(NC(=O)C(C#N)=CC(C)(C)N)cc3)c2n1", "IC50 [nM]": 0.5}
{"Structure (SMILES)": "CNc1ncc2cc(-c3cc(OC)cc(OC)c3Cl)c(=O)n(CCc3ccc(NC(=O)C(C#N)=CC(C)(C)N(C)C)cc3)c2n1", "IC50 [nM]": 2.9}
{"data": "Further values, each from its own experiment"}
{"Compound": "Cc1ccc(O)c(C)c1-c1cnc2[nH]c(-c3cnc(N4CCC5(CC4)CC(N4CCN(c6ccc(NC7CCC(=O)NC7=O)cc6F)CC4)CO5)nc3)cc2c1C#N (centres unmarked)", "system": "simulated gastric fluid", "conditions": "12 h", "measurement": "remaining compound", "value": "87%"}
{"Compound": "Cc1ncc(-c2cc3c(C(F)(F)F)c(-c4c(C)ccc(O)c4C)cnc3[nH]2)cn1", "target or system": "HCC1569", "test": "in-cell western, measured: CDK1 phospho-Thr14", "conditions": "0.0508 nM", "measurement": "pCDK1 (Thr14) level", "value": "8.54 RLU and 9.69 RLU"}
{"Compound": "Cc1ccc(O)c(C)c1-c1cnc2[nH]c(-c3cnc(N4CCC(CCN5CCN(c6ccc(NC7CCC(=O)NC7=O)cc6F)CC5)CC4)nc3)cc2c1C#N (centres unmarked)", "system": "female CD-1 mouse, plasma", "conditions": "oral, 10 mg/kg", "measurement": "Cmax", "value": "249 ng/mL"}
{"Compound": "Cc1ccc(O)c(C)c1-c1cnc2[nH]c(-c3cnc(N4CCC5(CC4)CC(CN4CCN(c6ccc(NC7CCC(=O)NC7=O)cc6F)CC4)C5)nc3)cc2c1C#N (centres unmarked)", "system": "female CD-1 mouse, plasma", "conditions": "oral, 20 mg/kg", "measurement": "half-life", "value": "3.6 h"}
